Measurements collected from several papers.
Numbers after ± are the reported error.

SMILES = CNC(=O)[C@@]12C[C@@H]1[C@@H](n1cnc3c(NCc4cccc(Cl)c4)nc(C#Cc4ccc(F)c(F)c4)nc31)[C@H](O)[C@@H]2O; cell line = monkey cell line; assay = visual; quantity = CC50; result = 32 µM
SMILES = CC[C@H](C)[C@H](NC(=O)[C@H](CO)NC(=O)[C@H](CC(N)=O)NC(=O)[C@H](CC(C)C)NC(=O)[C@H](CCCNC(=N)N)NC(=O)[C@H](CC(N)=O)NC(=O)[C@H](CS)NC(=O)[C@H](CCCCN)NC(=O)[C@@H](NC(=O)[C@H](CCCCN)NC(=O)[C@H](CC(C)C)NC(=O)[C@H](CC(N)=O)NC(=O)[C@@H](NC(=O)[C@@H]1CCCN1C(=O)[C@@H]1CCCN1C(=O)[C@H](Cc1ccc(O)cc1)NC(=O)[C@H](CCCCN)NC(=O)[C@H](CC(N)=O)NC(=O)[C@@H](NC(=O)[C@H](C)NC(=O)[C@H](CCCNC(=N)N)NC(=O)[C@H](CCCNC(=N)N)NC(=O)[C@@H](NC(=O)[C@H](CO)NC(=O)[C@H](CC(N)=O)NC(=O)[C@@H](NC(=O)[C@H](Cc1ccccc1)NC(=O)[C@H](CO)NC(=O)[C@H](CCCCN)NC(=O)[C@@H](NC(=O)[C@H](Cc1ccccc1)NC(=O)[C@H](CCCCN)NC(=O)[C@@H](N)C(C)C)C(C)C)[C@@H](C)CC)[C@@H](C)CC)[C@@H](C)CC)[C@@H](C)CC)[C@@H](C)CC)C(=O)O; cell line = THP-1, PMA-differentiated; assay = cell viability, MTT; quantity = CC50; result = 14.7 µM
SMILES = c1ccc2oc(-c3nn4c(Cn5cnc6ccccc65)nnc4s3)cc2c1; cell line = HEp-2; assay = cytotoxicity; quantity = CC50; result = > 100 µM
SMILES = CC(C)C[C@H](NC(=O)OCc1ccccc1)C(=O)N[C@H](C=O)C[C@@H]1CCCNC1=O; cell line = CEM; assay = cytotoxicity; quantity = CC50; result = > 100 µM
SMILES = O=C1Nc2ccc3ncsc3c2/C1=C/c1c[nH]cn1; cell line = THP-1; setting = 24 h; quantity = CC50; result = 1.13 µM
SMILES = CN[C@@H]1C[C@H]2O[C@@](C)([C@@H]1OC)n1c3ccccc3c3c4c(c5c6ccccc6n2c5c31)C(=O)NC4; cell line = THP-1; setting = 72 (unit not given); quantity = CC50; result = 0.025 µM
SMILES = Brc1ccccc1-c1nn2c(Cn3cnc4ccccc43)nnc2s1; cell line = HEp-2; assay = cytotoxicity; quantity = CC50; result = 23.1 µM
SMILES = CC[C@H](C)[C@H](NC(=O)[C@H](CCCNC(=N)N)NC(=O)[C@@H]1CCCN1C(=O)[C@H](CCCNC(=N)N)NC(=O)[C@@H](N)CCCNC(=N)N)C(=O)N[C@@H](Cc1c[nH]cn1)C(=O)N[C@@H](Cc1ccccc1)C(=O)N[C@@H](CCCNC(=N)N)C(=O)N[C@@H](Cc1ccccc1)C(=O)N1CCC[C@H]1C(=O)N[C@@H](CC(N)=O)C(=O)N[C@@H](CCCNC(=N)N)C(=O)N1CCC[C@H]1C(=O)N[C@@H](Cc1ccccc1)C(=O)N[C@H](C(=O)N1CCC[C@H]1C(=O)N[C@@H](CO)C(=O)N[C@@H](CCCNC(=N)N)C(=O)N[C@@H](CS)C(=O)N[C@@H](CC(N)=O)C(=O)N[C@@H](Cc1c[nH]cn1)C(=O)N[C@@H](CCCNC(=N)N)C(=O)N[C@@H](Cc1ccccc1)C(=O)N1CCC[C@H]1C(=O)N[C@@H](Cc1ccccc1)C(=O)N[C@@H](CCC(N)=O)C(=O)N1CCC[C@H]1C(=O)N[C@@H](Cc1ccccc1)C(=O)N[C@@H](Cc1ccc(O)cc1)C(=O)N[C@@H](Cc1c[nH]c2ccccc12)C(=O)N1CCC[C@H]1C(=O)N[C@@H](Cc1c[nH]cn1)C(=O)N[C@@H](CCCNC(=N)N)C(=O)N[C@@H](Cc1ccc(O)cc1)C(=O)N[C@@H](CC(C)C)C(=O)N[C@H](C(=O)N[C@@H](Cc1ccc(O)cc1)C(=O)N[C@@H](CCCNC(=N)N)C(=O)N[C@@H](Cc1ccc(O)cc1)C(=O)N[C@@H](Cc1ccccc1)C(=O)N1CCC[C@H]1C(=O)N[C@@H](CCCNC(=N)N)C(=O)N[C@@H](CCCNC(=N)N)C(=O)N[C@@H](CCCNC(=N)N)C(=O)N[C@@H](CC(C)C)C(=O)N[C@@H](CCC(N)=O)C(=O)N[C@@H](CCCNC(=N)N)C(=O)O)[C@@H](C)O)C(C)C; cell line = THP-1, PMA-differentiated; assay = cell viability, MTT; quantity = CC50; result = 51.7 µM
SMILES = Cc1ncccc1-c1nc2cc(C(=O)NCCCc3ccccc3)ccc2o1; cell line = Vero-E6; assay = CellTiter-Glo ATP; setting = 72 h, second round 5-point; scale = relative to: DMSO 0%, hyamine -100%, more negative, more toxic; quantity = maximum response; result = -10.8%
SMILES = COc1cccc(-c2nn3c(Cn4cnc5ccccc54)nnc3s2)c1; cell line = HEp-2; assay = cytotoxicity; quantity = CC50; result = 11.1 µM
SMILES = CCOCOC[C@H](C[C@H](C)C(=O)NO)NC(=O)c1ccc(Oc2ccccc2)cc1; cell line = 293T or HeLa; assay = CellTiter-Glo; setting = 72 h; quantity = CC50; result = > 10 µM
SMILES = CC[C@H](C)[C@H](NC(=O)[C@H](C)NC(=O)[C@H](CCCCN)NC(=O)[C@H](CC(N)=O)NC(=O)[C@@H](NC(=O)[C@H](CCCCN)NC(=O)[C@H](CCCCN)NC(=O)[C@H](CC(C)C)NC(=O)[C@@H](NC(=O)[C@H](CCCCN)NC(=O)CNC(=O)[C@@H](NC(=O)CNC(=O)[C@H](CC(N)=O)NC(=O)[C@@H](NC(=O)CNC(=O)[C@H](Cc1ccc(O)cc1)NC(=O)[C@H](CCCNC(=N)N)NC(=O)[C@H](CCSC)NC(=O)[C@@H](NC(=O)[C@H](CCSC)NC(=O)[C@H](C)NC(=O)[C@H](CC(C)C)NC(=O)[C@H](CCC(N)=O)NC(=O)[C@H](CCCCN)NC(=O)[C@H](CCCCN)NC(=O)[C@@H](NC(=O)[C@@H](N)CCCNC(=N)N)[C@@H](C)O)C(C)C)C(C)C)C(C)C)[C@@H](C)CC)[C@@H](C)CC)C(=O)N[C@H](C(=O)N[C@@H](CO)C(=O)N[C@@H](CCCCN)C(=O)N[C@@H](CCCCN)C(=O)N[C@@H](CC(N)=O)C(=O)N[C@@H](CCCCN)C(=O)N[C@@H](CC(=O)O)C(=O)N[C@H](C(=O)N[C@H](C(=O)N[C@H](C(=O)N[C@H](C(=O)N[C@@H](C)C(=O)N[C@@H](CC(N)=O)C(=O)N[C@@H](C)C(=O)N[C@H](C(=O)N[C@@H](Cc1ccccc1)C(=O)N[C@H](C(=O)N[C@@H](CCCCN)C(=O)O)C(C)C)C(C)C)C(C)C)[C@@H](C)O)C(C)C)[C@@H](C)CC)C(C)C; cell line = THP-1, PMA-differentiated; assay = cell viability, MTT; quantity = CC50; result = 56.5 µM
SMILES = CN(C)CCNC(=O)c1ccc2c(c1)C1(CCN(CC3CC3)C1)CN2Cc1ccccc1 (stereo not shown); cell line = Vero-E6; assay = CellTiter-Glo ATP; setting = concentration not given, 72 h, retest 8-point duplicates; scale = relative to: DMSO 0%, hyamine -100%, more negative, more toxic; quantity = cytotoxicity efficacy; result = 0%
SMILES = CC[C@H](C)[C@H](NC(=O)[C@H](CCCCN)NC(=O)[C@H](CCC(N)=O)NC(=O)[C@H](CCSC)NC(=O)[C@H](CCC(N)=O)NC(=O)[C@H](CC(C)C)NC(=O)[C@H](CCC(N)=O)NC(=O)[C@H](CO)NC(=O)[C@H](CCCCN)NC(=O)CNC(=O)[C@H](C)NC(=O)[C@@H](N)CC(C)C)C(=O)N[C@@H](Cc1ccccc1)C(=O)N[C@@H](CCCCN)C(=O)N[C@@H](CCCCN)C(=O)N[C@@H](CC(C)C)C(=O)N1CCC[C@H]1C(=O)NCC(=O)N[C@@H](Cc1ccccc1)C(=O)N[C@@H](CCCCN)C(=O)N[C@@H](CCCCN)C(=O)N[C@H](C(=O)N[C@@H](Cc1c[nH]cn1)C(=O)N[C@H](C(=O)N[C@@H](CC(C)C)C(=O)NCC(=O)N[C@@H](Cc1ccccc1)C(=O)N[C@@H](CCCNC(=N)N)C(=O)N1CCC[C@H]1C(=O)N[C@@H](CCCCN)C(=O)N[C@@H](CCCCN)C(=O)O)C(C)C)[C@@H](C)CC; cell line = THP-1, PMA-differentiated; assay = cell viability, MTT; quantity = CC50; result = 133 µM
SMILES = CC(C)(C)c1ccc(N(Cc2cc(Cl)cs2)C(=O)Cc2cncc3ccccc23)cc1; cell line = Calu-3; setting = 48 h; quantity = CC50; result = 33.4 µM
SMILES = CC(C)Cc1cc(-c2nn3c(Cn4cnc5ccccc54)nnc3s2)n[nH]1; cell line = HEp-2; assay = cytotoxicity; quantity = CC50; result = > 100 µM
SMILES = N#C[C@@]1(n2ccc(N)nc2=O)O[C@H](CO)[C@@H](O)[C@H]1O; cell line = CEM; quantity = CC50; result = 53 ± 34.1 µM
SMILES = CC[C@H](C)[C@H](NC(=O)[C@H](CCCNC(=N)N)NC(=O)[C@@H](NC(=O)[C@H](CC(C)C)NC(=O)[C@H](Cc1c[nH]c2ccccc12)NC(=O)[C@H](Cc1ccc(O)cc1)NC(=O)[C@@H](NC(=O)[C@H](CO)NC(=O)[C@@H](NC(=O)[C@H](CCCNC(=N)N)NC(=O)[C@H](CCC(N)=O)NC(=O)[C@H](CCCNC(=N)N)NC(=O)[C@@H]1CCCN1C(=O)[C@H](CC(C)C)NC(=O)[C@H](CO)NC(=O)[C@@H](NC(=O)[C@H](CC(C)C)NC(=O)[C@@H]1CCCN1C(=O)[C@H](CCC(N)=O)NC(=O)[C@H](CCCCN)NC(=O)[C@H](Cc1c[nH]cn1)NC(=O)[C@H](CS)NC(=O)[C@H](CCCNC(=N)N)NC(=O)[C@H](CCCCN)NC(=O)[C@H](CO)NC(=O)[C@H](CC(C)C)NC(=O)[C@H](CO)NC(=O)[C@H](Cc1ccccc1)NC(=O)[C@H](CC(C)C)NC(=O)[C@H](CCCCN)NC(=O)[C@H](Cc1c[nH]cn1)NC(=O)[C@@H](NC(=O)[C@@H](NC(=O)[C@H](CCCCN)NC(=O)[C@H](CCC(N)=O)NC(=O)[C@H](C)NC(=O)[C@H](CCCCN)NC(=O)[C@H](CC(C)C)NC(=O)[C@H](Cc1ccccc1)NC(=O)[C@@H](N)CC(C)C)[C@@H](C)CC)C(C)C)[C@@H](C)CC)[C@@H](C)O)[C@@H](C)O)[C@@H](C)O)C(=O)O; cell line = THP-1, PMA-differentiated; assay = cell viability, MTT; quantity = CC50; result = 20.1 µM
SMILES = Clc1ccc(-c2nn3c(Cn4cnc5ccccc54)nnc3s2)c(Cl)c1; cell line = HEp-2; assay = cytotoxicity; quantity = CC50; result = 83.3 µM
SMILES = CN(C)c1ccc(N(Cc2cc(Cl)cs2)C(=O)Cc2cncc3cccc(O)c23)cc1; cell line = Calu-3; setting = 48 h; quantity = CC50; result = 18.2 µM
SMILES = CC[C@H](C)[C@H](NC(=O)[C@H](C)NC(=O)[C@H](CO)NC(=O)[C@@H](NC(=O)[C@H](CCCCN)NC(=O)[C@H](CCSC)NC(=O)[C@H](CC(C)C)NC(=O)[C@H](CO)NC(=O)[C@H](CC(C)C)NC(=O)[C@H](CCCNC(=N)N)NC(=O)[C@H](Cc1c[nH]cn1)NC(=O)[C@@H](NC(=O)[C@H](CC(C)C)NC(=O)[C@H](CC(N)=O)NC(=O)[C@H](Cc1ccccc1)NC(=O)CN)[C@@H](C)CC)[C@@H](C)O)C(=O)N[C@@H](CCCCN)C(=O)N[C@@H](CCCCN)C(=O)N[C@H](C(=O)N[C@@H](CCCNC(=N)N)C(=O)N[C@@H](CC(N)=O)C(=O)N1CCC[C@H]1C(=O)N[C@@H](CCCCN)C(=O)NCC(=O)N1CCC[C@H]1C(=O)N[C@@H](CC(C)C)C(=O)N[C@H](C(=O)N[C@@H](CC(C)C)C(=O)N[C@@H](CCCNC(=N)N)C(=O)N[C@@H](CC(C)C)C(=O)NCC(=O)N[C@@H](C)C(=O)N[C@@H](C)C(=O)N1CCC[C@H]1C(=O)N[C@H](C(=O)N[C@H](C(=O)N[C@@H](CCC(N)=O)C(=O)N1CCC[C@H]1C(=O)N[C@H](C(=O)N[C@@H](CCCNC(=N)N)C(=O)N[C@@H](CCCNC(=N)N)C(=O)N[C@H](C(=O)N[C@@H](Cc1ccccc1)C(=O)N1CCC[C@H]1C(=O)N[C@@H](CCCNC(=N)N)C(=O)NCC(=O)N[C@@H](CC(C)C)C(=O)N1CCC[C@H]1C(=O)O)C(C)C)[C@@H](C)O)[C@@H](C)O)C(C)C)[C@@H](C)CC)[C@@H](C)CC; cell line = THP-1, PMA-differentiated; assay = cell viability, MTT; quantity = CC50; result = 262 µM
SMILES = COc1cccc(-c2nn3c(Cn4nnc5ccccc54)nnc3s2)c1; cell line = HEp-2; assay = cytotoxicity; quantity = CC50; result = > 100 µM
